Assay results from different studies.
“And” joins repeats or separate records; there may be more than shown. ± gives the spread as reported.
TDP1: Tyrosyl-DNA phosphodiesterase 1 (TDP1, Homo sapiens, UniProt Q9NUW8)
Chain of UniProt Q9NUW8 (whole entry, looked up): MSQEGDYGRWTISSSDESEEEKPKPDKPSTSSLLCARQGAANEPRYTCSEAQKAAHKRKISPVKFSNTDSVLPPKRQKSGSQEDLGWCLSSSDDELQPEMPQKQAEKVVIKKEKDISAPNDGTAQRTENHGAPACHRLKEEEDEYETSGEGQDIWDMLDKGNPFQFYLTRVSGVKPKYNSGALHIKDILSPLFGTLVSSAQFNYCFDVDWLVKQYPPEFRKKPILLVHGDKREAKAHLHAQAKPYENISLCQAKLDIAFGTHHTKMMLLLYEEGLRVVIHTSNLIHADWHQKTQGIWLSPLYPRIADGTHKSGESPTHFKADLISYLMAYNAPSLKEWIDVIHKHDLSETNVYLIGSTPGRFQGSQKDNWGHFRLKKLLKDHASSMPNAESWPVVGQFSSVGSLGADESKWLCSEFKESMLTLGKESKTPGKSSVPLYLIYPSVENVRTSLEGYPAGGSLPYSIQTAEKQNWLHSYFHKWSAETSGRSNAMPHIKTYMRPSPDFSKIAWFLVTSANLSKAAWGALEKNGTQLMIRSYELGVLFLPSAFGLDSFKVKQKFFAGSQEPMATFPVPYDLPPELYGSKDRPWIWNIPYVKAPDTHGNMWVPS

SMILES	tested on	test	system	setting	how to read	quantity	result
O=C(O)c1cccc(CN2Cc3cccc(n3)CN(Cc3cccc(C(=O)O)n3)Cc3cccc(n3)C2)n1		voltammetry, Nernst equation		Mn(III) complex		stability constant log β	4.34
CSCC[C@H](NC(=O)[C@H](CC(=O)O)NC(C)=O)C(=O)N[C@@H](Cc1ccc(O)cc1)C(=O)N[C@@H](Cc1ccc(O)cc1)C(=O)N[C@@H](CCCNC(=N)N)C(=O)N[C@@H](Cc1ccc(O)cc1)C(=O)N[C@@H](CC(N)=O)C(=O)NCC(=O)N[C@@H](CCCCN)C(=O)N[C@H](C(=O)N[C@@H](Cc1c[nH]c2ccccc12)C(=O)N[C@@H](Cc1c[nH]c2ccccc12)C(=O)N[C@@H](CCCNC(=N)N)C(=O)O)C(C)C		circular dichroism	free peptide in solution	concentration not given, 25 °C, no insulin present		β-strand content	38.2%
C/C(N)=N/C(=N\S(=O)(=O)c1ccc(C(F)(F)F)cc1)N1C[C@H](c2ccccc2)C(c2ccc(Cl)cc2)=N1			male C57BL/6 mouse, plasma	oral, 10 mg/kg		Cmax	1300 ng/mL
O=C(c1ccccc1)N1C(c2ccc(OCC3CCN(CCCF)C3)cc2)c2ccc(O)cc2CC12CC2 (stereo not drawn)			C57BL/6J mouse, plasma	intraperitoneal, 25 mg/kg		Cmax	4420 ng/mL
COc1cccc(OC)c1-c1cc(C(=O)NC2(C(=O)O)C3CC4CC(C3)CC2C4)nn1-c1ccc(C(=O)N(C)CCCN(C)CCCN(C)C(=O)[C@H](CCCCNC(=O)[C@H](CC(C)C)NC(=O)C2OC2C(=O)O)NC(=O)CN2CCN(CC(=O)[O-])CCN(CC(=O)[O-])CCN(CC(=O)[O-])CC2)cc1C(C)C.[177Lu+3] (mixture of isomers)			mouse HT-29 xenograft	24 h, biodistribution	baseline: tumour over pancreas	tumour-to-pancreas ratio	26.5
O=C(NS(=O)(=O)c1cccs1)c1cc2ccccc2n1Cc1ccc(Br)c2ccccc12			mouse, plasma	oral, 2 mg/kg		AUC(0-last)	348 ng·h/mL
COc1ccnc(C(=O)N[C@H]2COC(=O)[C@H](Cc3ccccc3)[C@@H](OC(=O)C(C)C)[C@H](C)OC2=O)c1O			UK acid sand A1, OC 0.8%	pH 3.9		Freundlich KFoc	2810 mL/g
COC(=O)c1c(C)oc2cc(Br)c(O)c(C=NOCc3ccc4nc(-c5ccccc5)c(Nc5ccc(C(=O)O)cc5)n4c3)c12 (mixture of isomers)	TDP1	enzyme activity, inhibitor		100 µM, unpurified compound		inhibition	3.2%
CCCCN1C(=O)c2cccc3c(NCCCCCCCCN4CCOCC4)ccc(c23)C1=O			ethyl acetate			emission maximum	513 nm
O=C(Nc1cnccc1-c1ccc([18F])nc1)c1ccnc(NC(=O)C2CC2)c1			mice, transgenic, GSK-3β, early-stage, thalamus	intravenous, dose not given, 120 min		SUV	0.024
CN1Cc2c(NCc3ccc(CN4CCN(c5ccc(C#N)c(F)c5)CC4)cc3)cccc2C(=O)N1C1CCC(=O)NC1=O (stereo not drawn)			mouse xenograft, heart	dose not given		organ weight	111 mg
[123I]c1ccc2nc(-c3ccc(-n4ccnn4)nc3)cn2c1			male Wistar rat, stomach	intravenous, 4 MBq, 30 min		tracer uptake	0.802 %ID/g
CCCCN1C(=O)c2cccc3c(NCCCCCCN4CCOCC4)ccc(c23)C1=O			acetonitrile			emission maximum	524 nm
CC(C)(c1cc(Br)c(O)c(Br)c1)c1cc(Br)c(O)c(Br)c1			whole cow milk	200 nM nominal		dose fraction in skim milk	44.3%
CCCCN1C(=O)c2cccc3c(NCCCCCN4CCOCC4)ccc(c23)C1=O			ethyl acetate			emission maximum	508 nm
C=C[C@]1(C)C[C@@H](OC(=O)CSc2ccc(NC(=O)c3ccco3)cc2)[C@]2(C)[C@H](C)CC[C@]3(CCC(=O)[C@H]32)[C@@H](C)[C@@H]1O			M. gallisepticum-infected chickens, plasma	intramuscular, 80 mg/kg single dose		apparent volume of distribution	9.9 L/kg
Cc1cnc2nc1Nc1cccc(c1)COC/C=C/COCc1cc(ccc1OCCN1CCOCC1)N2			BALB/c mice, rhEPO-induced polycythemia	100 mg/kg, day 0		body weight	18.2 g and 17.9 g and 18.6 g and 19 g and 18.1 g and 19.1 g
CCCCN1C(=O)c2cccc3c(NCCN4CCOCC4)ccc(c23)C1=O			chloroform			emission maximum	496 nm
FC(F)(F)c1cc2nc(c1)CNCc1cc(C(F)(F)F)cc(n1)CNC2		potentiometry				sum of log protonation constants	13.7
OC1(C(F)(F)F)CCN(c2nc(Nc3ccnc(C(F)(F)F)c3)nc(-c3cccc(C(F)(F)F)n3)n2)C1 (stereo not drawn)			monkey, both sexes, plasma	oral, 1 mg/kg, day 14		AUC(0-inf)	37400 ± 17500 ng·h/mL
CN1CCN(C(=O)c2ccnc(N3Cc4cnn(Cc5ccc(F)cc5)c4C3)n2)CC1		metabolic stability	rat, liver microsomes			half-life	0.2 h

SMILES	tested on	test	system	setting	how to read	quantity	result
Cc1[nH]nc2c1N=C(c1ccccc1Cl)c1cnc(N3CCOCC3)cc1N2			nude mouse, HCC1806 xenograft, plasma	oral, 10 mg/kg once daily		Cmax	149 ng/mL
C[C@H](CCC(=O)NCC(=O)O)[C@H]1CC[C@H]2[C@@H]3[C@H](O)C[C@@H]4C[C@H](OS(=O)(=O)O)CC[C@]4(C)[C@H]3CC[C@]12C			human, plasma	endogenous control diurnal	baseline: daily mean concentration	relative peak deviation	83.9 ± 13.9%
COc1cccc(OC)c1-c1cc(C(=O)NC2(C(=O)O)C3CC4CC(C3)CC2C4)nn1-c1ccc(C(=O)NCCNC(=O)[C@H](CCCCNC(=O)[C@H](CC(C)C)NC(=O)C2OC2C(=O)O)NC(=O)CN2CCN(CC(=O)[O-])CCN(CC(=O)[O-])CCN(CC(=O)[O-])CC2)cc1C(C)C.[177Lu+3] (mixture of isomers)			mouse HT-29 xenograft	24 h, biodistribution	baseline: tumour over spleen	tumour-to-spleen ratio	8.81
CC(=O)N([O-])CCCCCNC(=O)CCC(=O)N([O-])CCCCCNC(=O)CCC(=O)N([O-])CCCCCN.[89Zr+4]			mouse, brain	4 h		tracer uptake	0.01 %ID/g
Cn1c(C=NOCc2ccc3nc(-c4ccccc4)c(Nc4ccc(C(=O)O)cc4)n3c2)ccc1-c1cccc([N+](=O)[O-])c1	TDP1	enzyme activity, inhibitor		100 µM, unpurified compound		inhibition	35.2%
CC(C)(O)c1ncc([S@](N)(=O)=NC(=O)Nc2c3c(cc4c2CCC4)CCC3)s1		measured: any system organ class	healthy human volunteers	oral, 600 mg single dose, spray-dried dispersion suspension		subjects with TEAEs	100%
CC(C)C[C@H](NC(=O)[C@H](CCCN)NC(=O)CNC(=O)[C@@H](NC(=O)[C@H](C)NC(=O)[C@@H]1CSCSC[C@H](NC(=O)CC[C@H](N)C(=O)O)C(=O)N[C@@H](CC(N)=O)C(=O)N[C@@H]([C@@H](C)O)C(=O)N[C@@H](C)C(=O)N[C@@H]([C@@H](C)O)C(=O)N1)[C@@H](C)O)C(=O)N[C@@H](C)C(=O)N[C@@H](CCC(=O)O)C(=O)N[C@@](C)(Cc1ccccc1)C(=O)N[C@@H](CC(C)C)C(=O)N[C@H](C(=O)N[C@@H](CCCNC(=N)N)C(=O)N[C@@H](CO)C(=O)N[C@@H](CO)C(=O)N[C@@H](CC(N)=O)C(=O)N(C)[C@@H](CC(N)=O)C(=O)N[C@@H](Cc1ccccc1)C(=O)NCC(=O)N1CCC[C@H]1C(=O)N[C@@H](CCCCNC(=O)CC[C@H](NC(=O)CC[C@H](NC(=O)CCCCCCCCCCCCCCCCCCC(=O)O)C(=O)O)C(=O)O)C(=O)N[C@@H](CC(C)C)C(=O)N1CCC[C@H]1C(=O)N1CCC[C@H]1C(=O)N[C@H](C(=O)N[C@@H](CCC(=O)O)C(=O)N[C@H](C(=O)NCC(=O)N[C@@H](CO)C(=O)N[C@@H](CC(N)=O)C(=O)N[C@H](C(=O)N[C@@H](Cc1ccc(O)cc1)C(N)=O)[C@@H](C)O)C(C)C)[C@@H](C)O)C(C)C			human, plasma	subcutaneous, 0.12 mg, single dose, healthy volunteers		Tmax	132 h
C=CC(=O)Nc1cc(Nc2nccc(-c3cn(C)c4ccccc34)n2)c(OC)cc1N(C)CCNC		storage stability	human dried blood spot	10 d, on ice, LLOQ level		recovery	61.6%
Cc1cc(C(=O)N[C@@H](CC(=O)NC(C)(C)C)C(=O)NCCNC(=O)c2cccc(-n3cccn3)c2)no1			mouse, plasma	oral, 1 mg/kg		MRT	0.89 h
CCCCN1C(=O)c2cccc3c(NCCCCN4CCOCC4)ccc(c23)C1=O			DMF			emission maximum	526 nm
Cc1ccc(=O)n(-c2ccc(O)cc2)c1			BALB/c mouse, plasma	oral, 1.0 mmol/kg		MRT	2.28 ± 0.12 h
O=C(Nc1cnccc1-c1ccc([18F])cc1)c1ccnc(NC(=O)C2CC2)c1			FVB/NJ mouse, both sexes, brain	intravenous, 20 min		SUV	0.21
Cc1[nH]c(=O)c(CNC(=O)c2cc(Cl)c3c(c2C)O[C@@](C)([C@H]2CC[C@H](N(C)C)CC2)O3)c(C)c1O			healthy men, feces	oral, 200 mg [14C]-valemetostat	baseline: dose	excretion	5.61%
O=c1cc(/C=C/c2ccc(N3CCCC3)cc2)oc(/C=C/c2ccc(N3CCCC3)cc2)c1			nanoparticles in acetonitrile/water 1:19 v/v			radiative rate constant	1.1e+08 s⁻¹
CCCCCCn1ccc(=O)c(O)c1C		shake-flask, measured: iron(III) complex	1-octanol/Tris buffer	pH 7.4, ligand:iron 10:1		partition coefficient	1900 ± 120
CC(C(=O)O)n1nc(Cn2cc3cc(OCC[18F])c(Cl)cc3n2)c2ccccc2c1=O (racemic)			rat, liver	5 min		tracer uptake	4.68 %ID/g
O=C(NC1CCCCC1)c1cccc(N2Cc3cn(Cc4ccc(F)cc4)nc3C2)c1		metabolic stability	rat, liver microsomes			half-life	5.15 h
C=C(NC(=O)c1csc(-c2nc3c(cc2O)-c2nc(cs2)C(=O)NC(C(C)O)C(=O)NC(=C(C)OC)c2nc(cs2)C(=O)NC2c4nc(cs4)C(=O)NC(COC(=O)c4c5c6c(cccc6n4O)COC(=O)C(OC4CC(C)(O)C(N(C)C)C(C)O4)C2OC5)c2nc-3cs2)n1)C(N)=O (stereo not drawn)			cynomolgus monkey, both sexes, plasma	intravenous infusion, 1.5 mg/kg twice daily, 0 to 30 h		AUC(0-inf)	26600 ng·h/mL
CCCCN1C(=O)c2cccc3c(NCCCN4CCOCC4)ccc(c23)C1=O			DMF			emission maximum	532 nm
CC[C@H](C)[C@@H]1NC(=O)[C@H](Cc2ccc(O)cc2)NC(=O)CCCSC[C@@H](C(=O)N(CC(=O)N[C@@H](CC(C)C)C(=O)NCC(N)=O)Cc2ccc(F)cc2)NC(=O)[C@H](CC(N)=O)NC(=O)[C@H](CCC(N)=O)NC1=O			human	intranasal, 400 µg single dose		adverse drug reactions	50%
O=C1C2CC3CC1CC(C(=O)N1CCN(c4ccc([N+](=O)[O-])c5ncccc45)CC1)(C3)C2			ICR mice male, plasma	intravenous, 1 mg/kg		Vss	0.842 L/kg

Some of these lines once more:
SMILES	tested on	test	system	setting	how to read	quantity	result
Cc1ccc(=O)n(-c2ccc(O)cc2)c1			BALB/c mouse, plasma	oral, 1.0 mmol/kg		MRT	2.28 ± 0.12 h
CC(C(=O)O)n1nc(Cn2cc3cc(OCC[18F])c(Cl)cc3n2)c2ccccc2c1=O (racemic)			rat, liver	5 min		tracer uptake	4.68 %ID/g
CC(C)(O)c1ncc([S@](N)(=O)=NC(=O)Nc2c3c(cc4c2CCC4)CCC3)s1		measured: any system organ class	healthy human volunteers	oral, 600 mg single dose, spray-dried dispersion suspension		subjects with TEAEs	100%
CN1CCN(C(=O)c2ccnc(N3Cc4cnn(Cc5ccc(F)cc5)c4C3)n2)CC1		metabolic stability	rat, liver microsomes			half-life	0.2 h
CCCCN1C(=O)c2cccc3c(NCCCN4CCOCC4)ccc(c23)C1=O			DMF			emission maximum	532 nm
COc1cccc(OC)c1-c1cc(C(=O)NC2(C(=O)O)C3CC4CC(C3)CC2C4)nn1-c1ccc(C(=O)N(C)CCCN(C)CCCN(C)C(=O)[C@H](CCCCNC(=O)[C@H](CC(C)C)NC(=O)C2OC2C(=O)O)NC(=O)CN2CCN(CC(=O)[O-])CCN(CC(=O)[O-])CCN(CC(=O)[O-])CC2)cc1C(C)C.[177Lu+3] (mixture of isomers)			mouse HT-29 xenograft	24 h, biodistribution	baseline: tumour over pancreas	tumour-to-pancreas ratio	26.5
